# Assay results from different studies.
# A part holds a random share of what one study measured. Changes are numbered by the printed parent chain.

# Sample 1 — method: protein binding microarray; molecule type: double-stranded DNA, one strand shown; sample: in vitro; concentration: not given; reference: not given; reading: higher = stronger binding
# Target: Histone acetyltransferase KAT6A, winged helix 2, GST fusion (KAT6A, Homo sapiens, UniProt Q92794, residues 85-181)
# Setting: 8-mer, flanks averaged, mean of 2 arrays, mostly near background
# Residues (chain): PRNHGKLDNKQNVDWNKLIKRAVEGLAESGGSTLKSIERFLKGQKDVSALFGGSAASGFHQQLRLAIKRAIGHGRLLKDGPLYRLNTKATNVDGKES
Oligonucleotide,E-score
CCAGTCCC,-0.073
GTAAATAA,-0.0628
CAGGGTCC,0.00736
TGACAGCA,0.118
ACAGGAGA,-0.0505
CAACATCG,0.0719
GTTAATCA,0.163
AATCCACG,0.0635
CGTATCAG,0.0361
CTCCGGAC,-0.0277
GTGTTACA,-0.0825
ACATTCTG,-0.195
GAGTGATA,-0.0767
CTGTTTCA,0.097
CTATAGAC,-0.189
CCAACTAC,-0.00166
TACCGTGA,-0.123

# Sample 2 — method: protein-binding microarray; molecule type: double-stranded DNA, one strand shown; sample: in vitro; concentration: 250 nM; setting: 60-bp whole probe; added: salmon DNA 0.4 mg/ml; reference: random background probes; reading: higher = stronger binding; constant ends, left off below: GCCTAGCAC … GTCTTGATTCGCTTGACGCTGCTG
# Target: Interferon regulatory factor 7, full length, phosphomimetic (IRF7, Homo sapiens, UniProt Q92985, residues 1-503, S101K/S471D/S472D/S475D/S476D/S477D/S483D/S484D/S487D)
# Sequence of UniProt Q92985 (whole entry, unmodified, looked up): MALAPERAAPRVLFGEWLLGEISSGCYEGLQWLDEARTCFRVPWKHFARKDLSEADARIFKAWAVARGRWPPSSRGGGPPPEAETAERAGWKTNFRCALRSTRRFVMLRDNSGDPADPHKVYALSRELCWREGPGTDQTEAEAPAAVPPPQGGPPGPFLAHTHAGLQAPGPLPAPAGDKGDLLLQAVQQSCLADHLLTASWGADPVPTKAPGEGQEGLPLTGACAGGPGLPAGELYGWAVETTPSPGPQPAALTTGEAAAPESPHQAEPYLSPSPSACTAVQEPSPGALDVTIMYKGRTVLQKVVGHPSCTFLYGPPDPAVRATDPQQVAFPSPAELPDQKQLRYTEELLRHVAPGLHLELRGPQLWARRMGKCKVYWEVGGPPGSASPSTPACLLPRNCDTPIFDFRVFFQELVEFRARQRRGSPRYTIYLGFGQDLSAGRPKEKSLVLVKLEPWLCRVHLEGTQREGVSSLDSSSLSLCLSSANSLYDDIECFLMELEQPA
Oligonucleotide,log fluorescence
TCACCTGTACATCTATGACTGTGCTAG,-0.0382 z-score
GGCGAACTGGGGTTTCGAGACGTGCTA,1.42 z-score
GACGGTAACGGTCTCGGGACGTGCTAG,-0.231 z-score
GTAGGACTGCTTTTCCTTTAGTGCTAG,0.728 z-score
TTAGGACTGCAACTGCTTTAGTGCTAG,-0.222 z-score
TCAAATGTCCTTTCTCCAACTGTGCTA,0.582 z-score
GACGGACTGGGACCGGGGACGTGCTAG,-0.136 z-score
TCAGAAATCACCCTTGGAACTGTGCTA,-0.448 z-score
GACGGACTCGGGTTTCGGGACGTGCTA,4.07 z-score
GACGGGCTCGGTCTCGGGACGTGCTAG,0.337 z-score
GGTGATTTCAGTTTTCTTTTGTGCTAG,1.49 z-score
GACGGACTGGGGTTGCGGGACGTGCTA,-0.563 z-score
TTAGGACTGGGTTTAGGTTAGTGCTAG,0.307 z-score
GACGGACTAGGTCTCGGGACGTGCTAG,0.0181 z-score
TTAGATATCGGGTTTCGATTGGTGCTA,8.39 z-score
TCACTTCTAATATTCATACTGTGCTAG,1.02 z-score
CTAGATTTCAGTTTCGATTAGTGCTAG,9.82 z-score
TCAATTCTCTGCTTGCGACTGTGCTAG,0.694 z-score
GACGATTTCAGTATCAAGACGTGCTAG,0.443 z-score
GAAAACAAAGAAAATACAAAGTGCTAG,0.749 z-score
GACGATTTCAGTCTCGTGACGTGCTAG,0.536 z-score
GACGAACTGGGTTTTCGAGACGTGCTA,-0.0281 z-score
AACGGACTGGGACTGGGGACGTGCTAG,-0.465 z-score

# Sample 3 — method: DHFR PCA, deep sequencing; sample: yeast; added: (+)-ABA 0.11 µM; reference: wild-type fitted maximum; reading: higher = stronger binding
# Target: ABI1, truncated, D143A, DHFR fusion (Arabidopsis thaliana)
# Setting: methotrexate growth selection, single substitutions
# Parent: PYL1, truncated, DHFR fusion (Arabidopsis thaliana); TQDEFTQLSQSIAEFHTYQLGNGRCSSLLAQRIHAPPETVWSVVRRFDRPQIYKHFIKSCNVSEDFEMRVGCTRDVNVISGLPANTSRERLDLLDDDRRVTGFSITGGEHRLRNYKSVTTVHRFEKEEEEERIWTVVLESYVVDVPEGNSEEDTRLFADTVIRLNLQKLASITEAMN
Variant,relative binding score
C25H,-1.53%
R49C,29.2%
P146S,7.88%
P146R,3.09%
V70Y,0.613%
T6L,41.4%
V78T,25.9%
P83R,18.8%

# Sample 4 — target: CCNA1, cyclin fold, Cln2 fusion (human); method: yeast growth competition, sequencing; sample: yeast; setting: weak parent motif; reference: not given; reading: higher = stronger binding
# Parent: RBL1 docking peptide (human); GSAKRRLFGEDPP
Variant,normalised enrichment score
GSAKRRLFGFDPP [E10F],0.517
GSAKRRLFGKDPP [E10K],0.383
GSAKRRLFGEDPC [P13C],0.384
GSAKRRLFGEDQP [P12Q],0.305
GAAKRRLFGEDPP [S2A],0.684
GSALRRLFGEDPP [K4L],0.271
GSAKRRLFFEDPP [G9F],0.954
GSAKRRLFGEDWP [P12W],0.481
GSAKRRLFGEDLP [P12L],0.527
GSAKRRSFGEDPP [L7S],0.194
GSADRRLFGEDPP [K4D],0.226
GSAKRRLFPEDPP [G9P],0.609
GSAKRRLFGNDPP [E10N],0.746

# Sample 5 — method: RNA Bind-n-Seq; molecule type: RNA; sample: in vitro; concentration: 365 nM; reference: no-protein control; reading: higher = stronger binding
# Target: RNA binding protein fox-1 homolog 2, RRM domain, GST-SBP tag (RBFOX2, Homo sapiens, UniProt O43251-10, residues 100-194)
# Setting: natural RNA segment, single round, ends assumed
Oligonucleotide,RBNS enrichment (R)
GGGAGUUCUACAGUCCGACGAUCACAUAAUGUCAUUUGAACCUCACAAUGUUCUUGGGAUGGAGUCAGUUGUUCAGGGUCCCCGUGUGUGUGAUAAGCAGUGCUGGCUGGCUGUCUUCAGAACUCUUGGAAAUUGGAAUUCUCGGGUGCCAA,0.501
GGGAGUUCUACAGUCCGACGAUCUCUGACCUGACCUCCAUAUCUUCUCUUGCCAGCCUUUCCCUAUGCUCCCUCAAAUAUGUAUCUGAUGAGAUUCUUUAAUUCCCAACUCCAUGUGUGUGCGAGCACGCGUGUGGAAUUCUCGGGUGCCAA,0.778
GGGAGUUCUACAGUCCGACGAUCGGUGCAUGCUGCUAUGUGAAUCUUAAAACUCCCUGCUGGAGGGAGGAGGCUGCUACAUUCCUCUCGUUCUGUCUCACACACUCUUCCUCCGAGUUUGUGUGUCUAGAACUUGGAAUUCUCGGGUGCCAA,7.24
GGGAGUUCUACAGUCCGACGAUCUUUUAUUUUAUCUGCUAUUUCAGUUCAUCUAAAUCUUGUGUUCUGUACAUGUGAUGUUUGACUGUACCAUCGACUGUUAUGGAAGUUCAGCGUUGUAUGUCUCUCUACACUGGAAUUCUCGGGUGCCAA,0.616
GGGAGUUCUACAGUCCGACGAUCAAUGUAGAUGUUUUAAUAACAAUUUUUGUCCUUCUUAAAAUAAAAUGAGAGAAAUUUGCUUCUUUUAGCCUUUGUUCUAUAGAAUAUACGUGUGCACUAUGACUCUUGUCUGGAAUUCUCGGGUGCCAA,0.572
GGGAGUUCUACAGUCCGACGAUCUGUCACAUGUGGGCCAAGAAUAGAGUCACAUGUGGUGGAAAGAUGAGGAGUUAGGCUGUAGAAGUGACAGUUUCCAGUCAAAUCUGUAAACCCAGCCCCCAAGCUGAGACUGGAAUUCUCGGGUGCCAA,0.401
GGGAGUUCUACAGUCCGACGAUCUUUCCUUUAAGAUGCAUAUGCUUAACUAUUUGCAGUGUAUUCCUCAACAUAAACUUGUCUGACAGCAAAUAGUCAGAUGCUGCAGUGUUUGGAAAUGAUGUACAUCUUGAUGGAAUUCUCGGGUGCCAA,0.482
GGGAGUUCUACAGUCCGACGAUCACAUUCUAGUUUGUGGAGGGUUAUUUAAAAAAACAAAAAAGGAAGAUGGUCAAGUUUGUAAAAUAUUUGUUUGUGCUUUUUCCCCCUCCUUACCUGACCCCCUACGAGUUUGGAAUUCUCGGGUGCCAA,0.912
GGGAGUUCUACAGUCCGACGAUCGUUCUCUCCGCAUUCUUUAGGAGGAUUCAGGGGCGGCCUAGUGGAAGACAGUGGGCUCCAUGCCUCUUUCCCCUGGGGUUUGCUUCAGGGGCUCCUCCCCGAGGGCUUGCUGGAAUUCUCGGGUGCCAA,0.428
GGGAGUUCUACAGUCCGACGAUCCUCUCAUCACUGCCCUUGGACUUCCGCCUUGACUGUCCAUGAAAGACAGAAAUGGGUUGGGUAGUUGGGCUCCCAACCUCGGAUGGUGACCGCAACAUCCCGUGUGGGCGUGGAAUUCUCGGGUGCCAA,0.8
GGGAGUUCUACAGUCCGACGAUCUGUUCUUUUCAACCUCUGCCCACCCGUGCAUGUCAUCACAAACAUUUGCUCUUAAGUUACAAGAGACCACAUCCACCCAGGGAUUAGGGUUCAAGUAGCAGCUGCUAACCUGGAAUUCUCGGGUGCCAA,1.07
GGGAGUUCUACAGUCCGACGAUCUGCUUGUGAAAAUGUGUUCUCGGAGUGUGUAUGCCAAGAGUGCACCCAUGGUACCAAUCAUGAAUCUUUGUUUCAGGUUCAGUAUUAUGUAGUUGUUCGUUGGUUAUACAUGGAAUUCUCGGGUGCCAA,0.855

# Excerpt of the above (sample 2):
Oligonucleotide,log fluorescence
GACGGACTGGGGTTGCGGGACGTGCTA,-0.563 z-score
TTAGGACTGGGTTTAGGTTAGTGCTAG,0.307 z-score
GACGGACTAGGTCTCGGGACGTGCTAG,0.0181 z-score
TTAGATATCGGGTTTCGATTGGTGCTA,8.39 z-score
TCACTTCTAATATTCATACTGTGCTAG,1.02 z-score
CTAGATTTCAGTTTCGATTAGTGCTAG,9.82 z-score
TCAATTCTCTGCTTGCGACTGTGCTAG,0.694 z-score
GACGATTTCAGTATCAAGACGTGCTAG,0.443 z-score
GAAAACAAAGAAAATACAAAGTGCTAG,0.749 z-score
GACGATTTCAGTCTCGTGACGTGCTAG,0.536 z-score
GACGAACTGGGTTTTCGAGACGTGCTA,-0.0281 z-score
